Published values pooled from the literature.
“And” joins repeats or separate records; there may be more than shown. ± marks the error that the study gave.
KCNJ13 M125R: Inward rectifier potassium channel 13 (KCNJ13, Homo sapiens, UniProt O60928, M125R)
HSP90AA1: Heat shock protein HSP 90-alpha (HSP90AA1, Homo sapiens, UniProt P07900)
CDPK1: Calmodulin-domain protein kinase 1 (CDPK1, Toxoplasma gondii, UniProt Q9BJF5)
Squalene synthase ERG9: Squalene synthase ERG9 (Saccharomyces cerevisiae, UniProt P29704)
Genome polyprotein NS2B-NS3 protease: Genome polyprotein, NS2B-NS3 protease (ZIKV, UniProt A0A024B7W1)
SUMO-activating enzyme subunit 2 with SAE1: SUMO-activating enzyme subunit 2, with SAE1 (Homo sapiens, UniProt Q9UBT2)
hdac6 CD2 catalytic domain: Histone deacetylase 6, CD2 catalytic domain (hdac6, Danio rerio, UniProt F8W4B7)

The chains behind the UniProt entries cited, without tags or fusion partners. A line that says so, or that is headed by a name, gives the form on record, which may keep a tag or linker. Residues count along the entry.
UniProt O60928, whole entry M125R: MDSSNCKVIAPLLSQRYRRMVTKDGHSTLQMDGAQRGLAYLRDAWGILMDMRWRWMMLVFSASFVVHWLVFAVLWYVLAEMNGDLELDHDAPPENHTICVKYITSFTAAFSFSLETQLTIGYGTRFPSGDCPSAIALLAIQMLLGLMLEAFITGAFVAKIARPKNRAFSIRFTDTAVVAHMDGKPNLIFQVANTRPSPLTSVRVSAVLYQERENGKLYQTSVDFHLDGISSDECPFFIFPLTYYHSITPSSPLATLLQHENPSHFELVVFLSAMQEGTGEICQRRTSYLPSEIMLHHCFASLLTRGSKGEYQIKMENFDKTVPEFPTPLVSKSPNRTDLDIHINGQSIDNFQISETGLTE
UniProt P29704, 1-420 limits assumed: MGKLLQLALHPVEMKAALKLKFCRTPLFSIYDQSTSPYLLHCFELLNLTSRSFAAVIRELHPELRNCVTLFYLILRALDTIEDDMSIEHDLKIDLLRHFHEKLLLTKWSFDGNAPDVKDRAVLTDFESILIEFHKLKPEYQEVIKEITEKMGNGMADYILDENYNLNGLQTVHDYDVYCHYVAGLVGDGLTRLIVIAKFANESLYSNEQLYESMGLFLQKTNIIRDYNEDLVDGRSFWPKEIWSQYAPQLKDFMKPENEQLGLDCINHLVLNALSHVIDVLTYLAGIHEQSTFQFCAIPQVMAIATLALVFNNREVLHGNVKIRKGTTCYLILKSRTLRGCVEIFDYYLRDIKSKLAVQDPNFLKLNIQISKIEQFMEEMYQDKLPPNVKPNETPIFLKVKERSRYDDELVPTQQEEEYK
UniProt A0A024B7W1, with tags, fused parts or gaps with the stated changes limits assumed: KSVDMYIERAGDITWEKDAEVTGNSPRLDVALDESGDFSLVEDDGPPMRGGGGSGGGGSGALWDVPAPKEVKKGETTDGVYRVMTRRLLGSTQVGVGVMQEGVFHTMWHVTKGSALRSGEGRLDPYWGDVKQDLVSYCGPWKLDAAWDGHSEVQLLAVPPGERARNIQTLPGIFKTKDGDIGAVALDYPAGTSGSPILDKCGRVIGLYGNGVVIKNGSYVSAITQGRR
UniProt Q9UBT2, whole entry: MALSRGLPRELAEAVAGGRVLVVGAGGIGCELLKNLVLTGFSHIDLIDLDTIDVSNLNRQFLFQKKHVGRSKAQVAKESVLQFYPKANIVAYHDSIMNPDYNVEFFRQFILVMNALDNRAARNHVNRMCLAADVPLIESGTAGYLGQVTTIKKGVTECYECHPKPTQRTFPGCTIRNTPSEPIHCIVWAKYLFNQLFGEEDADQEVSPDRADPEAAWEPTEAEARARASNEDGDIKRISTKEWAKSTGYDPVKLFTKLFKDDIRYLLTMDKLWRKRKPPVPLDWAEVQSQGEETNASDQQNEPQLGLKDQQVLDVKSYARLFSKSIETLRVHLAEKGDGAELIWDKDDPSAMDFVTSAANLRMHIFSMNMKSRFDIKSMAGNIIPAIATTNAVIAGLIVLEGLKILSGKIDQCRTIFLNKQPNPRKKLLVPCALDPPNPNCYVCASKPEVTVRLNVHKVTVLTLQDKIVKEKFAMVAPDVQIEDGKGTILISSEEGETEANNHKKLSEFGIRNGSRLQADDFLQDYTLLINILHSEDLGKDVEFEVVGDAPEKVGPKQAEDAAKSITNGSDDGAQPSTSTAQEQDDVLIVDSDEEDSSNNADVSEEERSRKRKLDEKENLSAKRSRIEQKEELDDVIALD
UniProt P25779, whole entry, looked up: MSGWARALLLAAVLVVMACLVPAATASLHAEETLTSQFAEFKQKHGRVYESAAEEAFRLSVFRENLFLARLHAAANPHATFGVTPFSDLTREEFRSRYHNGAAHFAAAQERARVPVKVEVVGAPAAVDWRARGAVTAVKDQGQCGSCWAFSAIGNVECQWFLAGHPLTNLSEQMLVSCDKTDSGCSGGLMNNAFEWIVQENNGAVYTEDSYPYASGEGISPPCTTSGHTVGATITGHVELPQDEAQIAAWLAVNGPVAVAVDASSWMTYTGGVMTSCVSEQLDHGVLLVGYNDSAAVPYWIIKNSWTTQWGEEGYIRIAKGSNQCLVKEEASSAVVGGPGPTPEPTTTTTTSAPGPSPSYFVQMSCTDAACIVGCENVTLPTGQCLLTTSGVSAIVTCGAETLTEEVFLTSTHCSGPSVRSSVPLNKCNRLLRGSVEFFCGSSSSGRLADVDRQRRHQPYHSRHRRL
UniProt P22413, whole entry: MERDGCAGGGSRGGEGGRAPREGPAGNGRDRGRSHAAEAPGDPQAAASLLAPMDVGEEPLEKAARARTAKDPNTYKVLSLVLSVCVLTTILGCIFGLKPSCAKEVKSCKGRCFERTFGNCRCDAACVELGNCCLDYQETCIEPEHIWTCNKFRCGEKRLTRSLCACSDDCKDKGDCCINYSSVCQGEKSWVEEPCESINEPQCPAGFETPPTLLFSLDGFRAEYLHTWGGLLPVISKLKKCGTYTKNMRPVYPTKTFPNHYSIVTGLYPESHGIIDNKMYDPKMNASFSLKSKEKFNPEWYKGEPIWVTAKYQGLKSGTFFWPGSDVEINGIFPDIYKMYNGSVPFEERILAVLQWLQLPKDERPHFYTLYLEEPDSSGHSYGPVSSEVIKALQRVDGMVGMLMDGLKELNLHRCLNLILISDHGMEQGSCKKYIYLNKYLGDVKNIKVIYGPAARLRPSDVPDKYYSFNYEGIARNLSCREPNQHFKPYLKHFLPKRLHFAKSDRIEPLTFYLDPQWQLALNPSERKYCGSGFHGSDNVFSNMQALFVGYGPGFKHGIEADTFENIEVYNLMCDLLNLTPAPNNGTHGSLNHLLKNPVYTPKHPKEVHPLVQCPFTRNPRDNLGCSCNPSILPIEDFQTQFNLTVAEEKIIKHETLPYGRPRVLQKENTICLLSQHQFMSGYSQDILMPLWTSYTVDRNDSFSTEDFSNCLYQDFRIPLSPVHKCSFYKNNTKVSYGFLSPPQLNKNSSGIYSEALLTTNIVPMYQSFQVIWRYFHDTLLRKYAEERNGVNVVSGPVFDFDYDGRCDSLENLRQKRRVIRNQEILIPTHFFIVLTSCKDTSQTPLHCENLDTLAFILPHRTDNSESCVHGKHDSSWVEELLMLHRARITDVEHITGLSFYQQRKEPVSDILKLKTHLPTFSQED
UniProt O43148, whole entry: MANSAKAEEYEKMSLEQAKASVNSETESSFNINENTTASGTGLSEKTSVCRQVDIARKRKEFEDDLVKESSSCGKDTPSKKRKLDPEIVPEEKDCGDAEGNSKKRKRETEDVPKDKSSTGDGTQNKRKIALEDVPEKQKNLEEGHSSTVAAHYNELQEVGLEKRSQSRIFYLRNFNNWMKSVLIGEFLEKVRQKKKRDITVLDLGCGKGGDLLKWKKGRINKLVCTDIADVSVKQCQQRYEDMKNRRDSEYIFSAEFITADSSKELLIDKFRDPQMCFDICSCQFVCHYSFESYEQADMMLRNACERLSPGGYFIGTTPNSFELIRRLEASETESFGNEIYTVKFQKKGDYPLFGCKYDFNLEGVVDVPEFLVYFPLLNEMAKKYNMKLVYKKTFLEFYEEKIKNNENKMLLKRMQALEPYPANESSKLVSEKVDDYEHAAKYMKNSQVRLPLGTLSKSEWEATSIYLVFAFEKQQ
UniProt O15455, whole entry, looked up: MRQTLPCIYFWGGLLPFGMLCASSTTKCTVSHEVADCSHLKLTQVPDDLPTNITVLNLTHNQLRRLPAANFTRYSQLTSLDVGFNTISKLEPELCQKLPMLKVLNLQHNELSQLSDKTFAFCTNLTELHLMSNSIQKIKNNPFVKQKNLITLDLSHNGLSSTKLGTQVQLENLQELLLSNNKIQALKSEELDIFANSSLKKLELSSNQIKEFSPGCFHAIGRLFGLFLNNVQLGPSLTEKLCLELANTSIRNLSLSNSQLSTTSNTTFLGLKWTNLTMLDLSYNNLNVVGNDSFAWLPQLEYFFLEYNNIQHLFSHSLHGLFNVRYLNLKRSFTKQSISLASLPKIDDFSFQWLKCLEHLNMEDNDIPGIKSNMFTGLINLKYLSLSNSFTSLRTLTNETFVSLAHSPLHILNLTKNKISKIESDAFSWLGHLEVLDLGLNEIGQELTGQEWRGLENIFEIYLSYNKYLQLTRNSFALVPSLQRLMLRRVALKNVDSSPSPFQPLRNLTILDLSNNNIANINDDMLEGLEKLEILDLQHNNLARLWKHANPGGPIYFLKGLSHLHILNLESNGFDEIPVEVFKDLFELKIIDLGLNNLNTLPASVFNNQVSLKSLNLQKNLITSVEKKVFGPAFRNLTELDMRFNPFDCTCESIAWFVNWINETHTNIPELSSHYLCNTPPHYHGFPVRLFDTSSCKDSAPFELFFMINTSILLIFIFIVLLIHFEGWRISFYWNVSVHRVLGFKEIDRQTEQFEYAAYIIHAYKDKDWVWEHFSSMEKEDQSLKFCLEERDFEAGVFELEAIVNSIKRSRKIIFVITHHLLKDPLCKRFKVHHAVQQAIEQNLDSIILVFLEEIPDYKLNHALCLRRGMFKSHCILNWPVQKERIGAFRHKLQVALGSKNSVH
UniProt P05804, whole entry: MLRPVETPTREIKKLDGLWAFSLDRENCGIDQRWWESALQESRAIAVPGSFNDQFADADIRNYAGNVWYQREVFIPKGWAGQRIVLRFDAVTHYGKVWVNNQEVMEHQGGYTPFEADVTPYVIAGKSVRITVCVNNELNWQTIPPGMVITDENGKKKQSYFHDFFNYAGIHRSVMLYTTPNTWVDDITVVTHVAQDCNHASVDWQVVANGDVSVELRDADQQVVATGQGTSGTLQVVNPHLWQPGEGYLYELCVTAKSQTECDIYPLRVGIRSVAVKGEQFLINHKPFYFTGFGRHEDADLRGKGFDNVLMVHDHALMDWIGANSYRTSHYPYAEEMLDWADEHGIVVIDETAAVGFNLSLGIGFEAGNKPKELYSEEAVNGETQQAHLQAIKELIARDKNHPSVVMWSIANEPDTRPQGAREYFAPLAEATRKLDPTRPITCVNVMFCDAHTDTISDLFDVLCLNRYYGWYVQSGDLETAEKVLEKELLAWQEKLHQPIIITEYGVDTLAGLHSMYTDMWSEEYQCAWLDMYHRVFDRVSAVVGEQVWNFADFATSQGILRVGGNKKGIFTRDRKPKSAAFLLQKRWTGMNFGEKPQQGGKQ
UniProt Q2FZ93, whole entry: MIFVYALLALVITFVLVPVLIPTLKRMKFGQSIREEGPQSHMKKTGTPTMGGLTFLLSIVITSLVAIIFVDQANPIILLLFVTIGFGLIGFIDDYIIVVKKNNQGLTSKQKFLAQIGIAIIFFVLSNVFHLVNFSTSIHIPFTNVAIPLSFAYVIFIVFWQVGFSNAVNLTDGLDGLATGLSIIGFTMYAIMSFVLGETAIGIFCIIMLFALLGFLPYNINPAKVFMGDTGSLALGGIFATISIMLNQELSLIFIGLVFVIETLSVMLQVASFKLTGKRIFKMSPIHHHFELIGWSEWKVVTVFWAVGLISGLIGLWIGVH
UniProt P45983, 1-384 isoform 3: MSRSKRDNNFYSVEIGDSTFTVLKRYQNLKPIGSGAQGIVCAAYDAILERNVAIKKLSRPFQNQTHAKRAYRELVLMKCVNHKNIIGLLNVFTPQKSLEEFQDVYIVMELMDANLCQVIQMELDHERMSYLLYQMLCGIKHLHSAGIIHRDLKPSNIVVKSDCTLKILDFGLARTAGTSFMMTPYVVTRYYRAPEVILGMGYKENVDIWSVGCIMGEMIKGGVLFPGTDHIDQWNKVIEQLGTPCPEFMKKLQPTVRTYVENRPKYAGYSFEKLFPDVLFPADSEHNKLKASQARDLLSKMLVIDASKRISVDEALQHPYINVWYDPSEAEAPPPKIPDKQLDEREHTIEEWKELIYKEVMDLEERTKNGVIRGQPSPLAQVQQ
UniProt C4Z6Z2, 1-611: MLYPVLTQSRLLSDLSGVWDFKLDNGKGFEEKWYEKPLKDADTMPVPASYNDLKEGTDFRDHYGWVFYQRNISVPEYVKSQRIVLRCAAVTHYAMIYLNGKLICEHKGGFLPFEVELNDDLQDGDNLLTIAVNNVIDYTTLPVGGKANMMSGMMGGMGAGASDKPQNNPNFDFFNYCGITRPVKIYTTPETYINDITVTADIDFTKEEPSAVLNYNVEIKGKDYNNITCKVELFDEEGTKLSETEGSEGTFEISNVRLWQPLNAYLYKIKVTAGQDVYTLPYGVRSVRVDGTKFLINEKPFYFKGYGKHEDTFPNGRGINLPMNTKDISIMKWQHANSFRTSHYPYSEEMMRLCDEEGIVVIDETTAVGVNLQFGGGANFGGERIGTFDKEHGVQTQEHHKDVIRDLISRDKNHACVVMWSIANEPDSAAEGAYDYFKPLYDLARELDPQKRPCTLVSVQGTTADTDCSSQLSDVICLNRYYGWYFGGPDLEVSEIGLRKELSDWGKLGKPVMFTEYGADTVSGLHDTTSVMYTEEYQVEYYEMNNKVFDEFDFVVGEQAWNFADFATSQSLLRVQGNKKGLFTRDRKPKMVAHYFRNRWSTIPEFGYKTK
UniProt P19650, whole entry: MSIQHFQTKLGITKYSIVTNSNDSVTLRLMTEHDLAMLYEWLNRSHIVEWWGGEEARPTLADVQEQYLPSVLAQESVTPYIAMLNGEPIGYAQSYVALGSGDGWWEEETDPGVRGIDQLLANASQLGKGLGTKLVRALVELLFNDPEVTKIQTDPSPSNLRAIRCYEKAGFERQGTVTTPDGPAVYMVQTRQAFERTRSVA

Structure (SMILES)	target	assay	test system	conditions	IC50
O=C(COC(=O)CNC(=O)c1ccccc1Cl)Nc1ccccc1Cl	Cruzipain (Trypanosoma cruzi, UniProt P25779)	enzyme activity, inhibitor	–	–	0.25 µM
Nc1c(S(=O)(=O)Oc2ccccc2NC(=O)Cc2c[nH]c3ccccc23)ccc2ccccc12	Ectonucleotide pyrophosphatase/phosphodiesterase family member 1 (ENPP1, Homo sapiens, UniProt P22413)	–	–	added: p-nitrophenyl thymidine 5′-monophosphate	0.91 ± 0.02 µM
CC1=C([C@H](O)CC(=O)O[C@H](C)[C@@H](C)[C@H](O)CC(=O)[C@@H](C)[C@@H](O)CCCCCOC(=O)CC(C)C)C(=O)OC1=O	Serine/threonine-protein phosphatase 2A catalytic subunit alpha isoform (PPP2CA, Homo sapiens, UniProt P67775)	enzyme activity, inhibitor, malachite green	–	30 °C, added: phosphopeptide KRpTIRR 40 µM	0.28 ± 0.028 µM
O=C(NC1CCN(Cc2cc(Cl)c3cccnc3c2O)CC1)c1ccccc1F	KCNJ13 M125R	ion current, inhibitor, thallium flux	T-REx-HEK293	–	9.6 µM
COc1cc(C)cc(Sc2cc(C(=O)N3Cc4ccccc4C3)ccc2O)c1	HSP90AA1	binding, fluorescence polarization	–	added: FITC-geldanamycin	~0.9 µM
NC(=O)c1cc(Sc2ccc(C(F)(F)F)cc2)nc2ccccc12	CDPK1	kinase activity, inhibitor, ELISA	–	added: syntide-2 substrate, ATP 25 µM	4.4 µM
[2H]c1c([2H])c(S(=O)(=O)N2CCC(F)(C(=O)Nc3ccc4cc(C(=O)O)ccc4c3)CC2)c(C([2H])([2H])[2H])c([2H])c1C([2H])([2H])[2H]	Fatty-acid amide hydrolase 1 (FAAH, Homo sapiens, UniProt O00519)	–	–	pH 8, 37 °C, added: OMP substrate 50 µM	19 µM
CC(C)=CCC/C(C)=C/CCCCN1[C@H](COP(=O)(O)OP(=O)(O)O)[C@@]1(C)CC/C=C(\C)CCC=C(C)C (single isomer, unassigned)	Squalene synthase ERG9	enzyme activity, inhibitor	–	pH 7.2, added: 1.5 mM pyrophosphate, 100 µM [3H]FPP	4.8 ± 0.9 µM
COc1ccc2c(c1)c(CC(=O)NCCCCNC(=O)CCC(=O)OC1c3cc4c(cc3C(c3cc(OC)c(OC)c(OC)c3)C3C(=O)OCC13)OCO4)c(C)n2C(=O)c1ccc(Cl)cc1 (stereo not shown)	Prostaglandin G/H synthase 2 (PTGS2, Homo sapiens, UniProt P35354)	enzyme activity, inhibitor	1483 HNSCC cells	–	0.2 µM
Cc1ccc(-c2c(C=C(C#N)c3cnccn3)n(CCCO)c3ncnc(N)c23)cc1	Ribosomal protein S6 kinase alpha-3, C-terminal kinase domain (Rps6ka3, Mus musculus, UniProt P18654)	kinase activity, inhibitor	–	C-terminal kinase domain	0.012 µM
NCc1ccc(-c2ncc(OCC3CCNCC3)nc2-c2ccc3[nH]ccc3c2)cc1	Genome polyprotein NS2B-NS3 protease	enzyme activity, inhibitor	–	Gly4-Ser-Gly4-linked NS2B-NS3 protease	1.12 µM and 1.1 µM
COc1cccc(C(=O)NC2CCN(Cc3cc(Cl)c4cccnc4c3O)CC2)c1	KCNJ13 M125R	ion current, inhibitor, thallium flux	T-REx-HEK293	–	9.3 µM
N=C(N)c1ccc(NCCOCCNc2ccc(C(=N)N)cc2)cc1	Glutamate NMDA receptor; Grin1/Grin2b, ifenprodil binding site (Grin1/Grin2b, Rattus norvegicus, UniProt P35439+Q00960)	–	–	pH 7.4	11.4 ± 3.7 µM
COC(=O)C1=C(C(=O)OC)C2([C@@H](Cc3ccccc3)Nc3ccc(Cl)cc3)C=CC1O2 (stereo partly shown)	SUMO-activating enzyme subunit 2 with SAE1	SUMOylation, inhibitor, AlphaScreen	–	added: SUMO1-RanGAP1 conjugation	0.71 µM
CC(C)Cc1cc(C(=O)O)nc(O)n1	Metallo-beta-lactamase type 2 (blaNDM-1, Klebsiella pneumoniae, UniProt C7C422)	–	–	10 min preincubation, added: FC5 fluorogenic substrate	> 1000 µM
C=CC[C@H](Nc1ccccc1)C12C=CC(O1)C(C(=O)OC)=C2C(=O)OC (stereo partly shown)	SUMO-activating enzyme subunit 2 with SAE1	SUMOylation, inhibitor, AlphaScreen	–	added: SUMO1-RanGAP1 conjugation	5.77 µM
CN1CCN(C(c2ccccc2)c2ccccc2)CC1	mRNA cap guanine-N(7) methyltransferase (RNMT, Homo sapiens, UniProt O43148)	enzyme activity, inhibitor	–	–	159 ± 36 µM
NC(=O)c1cc(Sc2ccc(O)cc2)nc2ccccc12	CDPK1	kinase activity, inhibitor, ELISA	–	added: syntide-2 substrate, ATP 25 µM	1.6 µM
CC(Oc1ccccc1)C(=O)Nc1ccc(Cl)cc1 (stereo not shown)	Inosine-5'-monophosphate dehydrogenase (guaB, Escherichia coli K-12, UniProt P0ADG7, L444Y/S250A)	enzyme activity, inhibitor	–	–	1.8 µM
O=C(c1ccc(O)c(Sc2ccccc2)c1)N1Cc2ccccc2C1	HSP90AA1	binding, fluorescence polarization	–	added: FITC-geldanamycin tracer	4.87 ± 0.29 µM
O=c1ccn([C@@H]2O[C@H](COP(=O)(O)OP(=O)(O)OP(=O)(O)O)[C@@H](O)[C@]2(F)Br)c(=O)[nH]1	Genome polyprotein, NS5B polymerase (Hepatitis C virus genotype 4a, UniProt O39929)	polymerase activity, inhibitor	Hepatitis C virus, genotype 4a	–	1.8 µM
O=[N+]([O-])c1cc(N=Nc2c(O)ccc3cc(S(=O)(=O)O)ccc23)c(O)c([N+](=O)[O-])c1	Bcl-2-related protein A1 (Mus musculus, UniProt Q07440, C113S/P104K)	binding, inhibitor, fluorescence polarization competition	–	3 µM Bfl-1/A1 protein, added: 375 nM FITC-Noxa peptide	68.9 µM
COc1ccc2c(c1)c1c(C)c3cnccc3c(C)c1n2CCN1CCOCC1	Toll-like receptor 3 (Homo sapiens, UniProt O15455)	reporter gene, SEAP reporter	HEK-Blue hTLR3	added: poly(I:C)	0.12 ± 0.01 µM

Structure (SMILES)	target	assay	test system	conditions	IC50
N=C(N)c1ccc(NCCCCCNc2ccc(C(=N)N)cc2)cc1	Grin1/Grin2a/Grin2b, MK-801 channel binding site (Rattus norvegicus, UniProt P35439+Q00959+Q00960)	–	–	pH 7	3.1 ± 0.11 µM
CO[C@H]1[C@H](O[C@H]([C@H]2O[C@@H](n3ccc(=O)[nH]c3=O)[C@H](O)[C@@H]2O)[C@H](NCCCNC(=O)[C@@H](NC(=O)[C@@H](NC(=O)N[C@H](C(=O)O)C(C)C)[C@@H]2CCNC(=N)N2)[C@@H](OC(=O)CCCCCCCCCCCCN(O)C(=N)N)C(C)C)C(N)=O)O[C@H](CN)[C@H]1O	MurX (Mycolicibacterium smegmatis)	enzyme activity, inhibitor	P-60 membrane fraction	–	0.015 ± 0.005 µM
c1ccc(-c2ccc3c(n2)sc2c(N4CCNCC4)ncnc23)cc1	Beta-glucuronidase (uidA, Escherichia coli, UniProt P05804)	enzyme activity, inhibitor	–	–	0.016 ± 0.009 µM
CC(C)[C@H](NC(=O)N[C@@H](CCCCN)C(=O)N[C@@H](CNC(=O)CCCCCCCCCCS)C(=O)NCCCNC(C[C@H]1O[C@@H](n2ccc(=O)[nH]c2=O)[C@H](O)[C@@H]1O)C(=O)O)C(=O)O (stereo partly shown)	mraY (Staphylococcus aureus, UniProt Q2FZ93)	enzyme activity, inhibitor	crude membranes	added: dansylated Park's nucleotide	0.068 ± 0.004 µM
O=C(NO)c1cc(F)cc(F)c1F	hdac6 CD2 catalytic domain	enzyme activity, inhibitor, fluorogenic	–	30 min, added: Ac-RHK(Ac)K(Ac)-AMC	4.6 ± 0.5 µM
COC(=O)[C@@]1(C)C=C(C(=O)Nc2ccc(C)c(C(=O)Nc3ccc(Nc4nccc(-c5cccnc5)n4)cc3)c2)C(=O)CC1	Mitogen-activated protein kinase 8 (MAPK8, Homo sapiens, UniProt P45983)	enzyme activity	–	added: glutathione 10 mM	0.012 ± 0.001 µM
O=C(NO)c1c(F)c(F)c(F)c(F)c1F	hdac6 CD2 catalytic domain	enzyme activity, inhibitor, fluorogenic	–	30 min, added: Ac-RHK(Ac)K(Ac)-AMC	> 20 µM
COC(=O)C1=C(C(=O)OC)C2([C@@H](C)Nc3ccc(C)cc3)C=CC1O2 (stereo partly shown)	SUMO-activating enzyme subunit 2 with SAE1	SUMOylation, inhibitor, AlphaScreen	–	added: SUMO1-RanGAP1 conjugation	34.7 µM
CNc1nc(N2CCNCC2)c2sc3nc(-c4ccccc4)ccc3c2n1	Beta-glucuronidase (Lachnospira eligens, UniProt C4Z6Z2)	enzyme activity, inhibitor	–	–	0.6 ± 0.1 µM
N#Cc1c(C(F)(F)F)cc(-c2ccncc2)nc1SCC(=O)Nc1ncco1	Trace amine-associated receptor 1 (TAAR1, Homo sapiens, UniProt Q96RJ0)	–	–	–	> 10 µM
NCc1ccc(-c2ncc(OCC3CCNCC3)nc2-c2ccc(-c3cn[nH]c3)cc2)cc1	Genome polyprotein NS2B-NS3 protease	enzyme activity, inhibitor	–	Gly4-Ser-Gly4-linked NS2B-NS3 protease	0.71 ± 0.07 µM
NC(=O)CCOc1c(SSc2cnn(-c3ccccc3)c(=O)c2OCCC(N)=O)cnn(-c2ccccc2)c1=O	srtA (Staphylococcus aureus, UniProt Q2FV99)	inhibitor	–	–	3.25 ± 0.34 µM
COc1ccc(C(O)(c2ccccc2)c2ccccc2)cc1	Kinesin-like protein KIF11 (KIF11, Homo sapiens, UniProt P52732)	microtubule-stimulated ATPase activity, inhibitor	–	–	7.8 µM
CC(C)=CCC/C(C)=C/CCCCN1[C@@H](COP(=O)(O)CP(=O)(O)O)[C@]1(C)CC/C=C(\C)CCC=C(C)C (relative stereo)	Squalene synthase ERG9	enzyme activity, inhibitor	–	pH 7.2, added: 1.5 mM pyrophosphate, 100 µM [3H]FPP	13.8 ± 3.8 µM
O=c1[nH]c2sc3c(c2c(=O)n1O)CCC3	Gag-Pol polyprotein, reverse transcriptase RNase H (gag-pol, Human immunodeficiency virus 1, UniProt P03366)	RNase H activity, inhibitor	–	added: HTS-1 RNA/DNA substrate	0.1 ± 0.03 µM
c1nc(N2CCNCC2)c2sc3nc(N4CCOCC4)ccc3c2n1	Beta-glucuronidase (Lachnospira eligens, UniProt C4Z6Z2)	enzyme activity, inhibitor	–	–	0.6 ± 0.1 µM
CN(Cc1cn(-c2ccc(OCCCF)cc2)nn1)S(=O)(=O)c1ccc(CN2CCOCC2)cc1	C-X-C chemokine receptor type 4 (CXCR4, Homo sapiens, UniProt P61073)	binding, antagonist	MDA-MB-231	added: biotinylated TN14003	0.0069 µM
O=C(NC1CCN(Cc2cc(Cl)c3cccnc3c2O)CC1)OC1CCCC1	KCNJ13 M125R	ion current, inhibitor, thallium flux	T-REx-HEK293	–	2.8 µM
COC(=O)C1=C(C(=O)OC)C2(C(Cc3ccc(OC(F)(F)F)cc3)Nc3ccccc3)C=CC1O2 (stereo not shown)	SUMO-activating enzyme subunit 2 with SAE1	SUMOylation, inhibitor, AlphaScreen	–	added: SUMO1-RanGAP1 conjugation	0.92 µM
OCCNc1nc(N2CCNCC2)c2sc3nc(-c4ccccc4)ccc3c2n1	Beta-glucuronidase (Lachnospira eligens, UniProt C4Z6Z2)	enzyme activity, inhibitor	–	–	0.5 ± 0.1 µM
Cc1cnc(Nc2ccc(N3CCN(C)CC3)cc2)nc1Nc1cccc(NS(=O)(=O)C(C)(C)C)c1	Tyrosine-protein kinase JAK2 (JAK2, Homo sapiens, UniProt O60674)	kinase activity	–	added: ATP 10 µM	0.0027 µM
CNc1nc(N2CCNCC2)c2sc3ncccc3c2n1	Beta-glucuronidase (Streptococcus agalactiae serotype V, UniProt Q8E0N2)	enzyme activity, inhibitor	–	–	2.8 ± 0.6 µM
NC[C@@H](NC[C@@H]1CCCN1C[C@@H](CO)NC[C@@H](NCCc1ccc(Cl)c(Cl)c1)c1ccccc1)c1ccccc1	Aminoglycoside N(6')-acetyltransferase type 1 (aacA4, Klebsiella pneumoniae, UniProt P19650)	acetyltransferase activity, inhibitor	–	–	6.5 µM

Some of these lines once more:
Structure (SMILES)	target	assay	test system	conditions	IC50
NCc1ccc(-c2ncc(OCC3CCNCC3)nc2-c2ccc3[nH]ccc3c2)cc1	Genome polyprotein NS2B-NS3 protease	enzyme activity, inhibitor	–	Gly4-Ser-Gly4-linked NS2B-NS3 protease	1.12 µM and 1.1 µM
CNc1nc(N2CCNCC2)c2sc3ncccc3c2n1	Beta-glucuronidase (Streptococcus agalactiae serotype V, UniProt Q8E0N2)	enzyme activity, inhibitor	–	–	2.8 ± 0.6 µM
c1nc(N2CCNCC2)c2sc3nc(N4CCOCC4)ccc3c2n1	Beta-glucuronidase (Lachnospira eligens, UniProt C4Z6Z2)	enzyme activity, inhibitor	–	–	0.6 ± 0.1 µM
N=C(N)c1ccc(NCCCCCNc2ccc(C(=N)N)cc2)cc1	Grin1/Grin2a/Grin2b, MK-801 channel binding site (Rattus norvegicus, UniProt P35439+Q00959+Q00960)	–	–	pH 7	3.1 ± 0.11 µM
